{"data": "Published values pooled from the literature", "note": "A part holds a random share of what one study measured. Changes are numbered by the printed parent chain."}
{"data": "Sample 1", "target": "CCND3, cyclin fold, Cln2 fusion (human)", "technique": "yeast growth competition, sequencing", "sample": "yeast", "notes": "weak parent motif", "reference": "not given", "direction": "higher = stronger binding", "starting sequence": "GMNC docking peptide (human); KNAKRNLSSEFAN; partner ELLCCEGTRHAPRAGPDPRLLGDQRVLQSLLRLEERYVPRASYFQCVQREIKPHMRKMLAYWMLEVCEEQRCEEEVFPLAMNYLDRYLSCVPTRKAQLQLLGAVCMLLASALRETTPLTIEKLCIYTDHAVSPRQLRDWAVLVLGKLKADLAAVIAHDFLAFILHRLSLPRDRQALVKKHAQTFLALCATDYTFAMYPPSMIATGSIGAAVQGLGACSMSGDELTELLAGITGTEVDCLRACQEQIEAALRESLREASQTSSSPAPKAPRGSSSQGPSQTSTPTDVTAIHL"}
{"Variant": "K4T", "normalised enrichment score": -0.0309}
{"Variant": "E10C", "normalised enrichment score": 0.285}
{"Variant": "S8Y", "normalised enrichment score": -0.00412}
{"Variant": "A3T", "normalised enrichment score": 0.471}
{"Variant": "R5W", "normalised enrichment score": 0.2}
{"Variant": "L7F", "normalised enrichment score": 0.132}
{"Variant": "E10F", "normalised enrichment score": -0.283}
{"Variant": "E10P", "normalised enrichment score": "5.46e-05"}
{"Variant": "E10Y", "normalised enrichment score": -0.449}
{"Variant": "K4Y", "normalised enrichment score": 0.22}
{"Variant": "A12V", "normalised enrichment score": -0.153}
{"Variant": "A12L", "normalised enrichment score": 0.123}
{"Variant": "S8A", "normalised enrichment score": 0.076}
{"Variant": "S8K", "normalised enrichment score": 0.127}
{"Variant": "S9R", "normalised enrichment score": 0.422}
{"Variant": "N6P", "normalised enrichment score": 0.296}
{"Variant": "R5P", "normalised enrichment score": -0.262}
{"Variant": "E10A", "normalised enrichment score": -0.297}
{"Variant": "R5A", "normalised enrichment score": 0.183}
{"Variant": "R5C", "normalised enrichment score": 0.135}
{"Variant": "N2W", "normalised enrichment score": 0.575}
{"data": "Sample 2", "target": "Ras GTPase-activating protein-binding protein 1, RRM domain (G3BP1, Homo sapiens, UniProt Q13283)", "technique": "RNA Bind-n-Seq", "form": "RNA", "sample": "in vitro", "concentration": "1 µM", "notes": "whole 134-nt RNA, ends assumed", "together with": "150 mM KCl", "reference": "input library", "direction": "higher = stronger binding", "shared flanks, not repeated": "GGGAGUUCUACAGUCCGACGAUC … UGGAAUUCUCGGGUGUCAAGG", "UniProt Q13283, sequence (whole entry, looked up)": "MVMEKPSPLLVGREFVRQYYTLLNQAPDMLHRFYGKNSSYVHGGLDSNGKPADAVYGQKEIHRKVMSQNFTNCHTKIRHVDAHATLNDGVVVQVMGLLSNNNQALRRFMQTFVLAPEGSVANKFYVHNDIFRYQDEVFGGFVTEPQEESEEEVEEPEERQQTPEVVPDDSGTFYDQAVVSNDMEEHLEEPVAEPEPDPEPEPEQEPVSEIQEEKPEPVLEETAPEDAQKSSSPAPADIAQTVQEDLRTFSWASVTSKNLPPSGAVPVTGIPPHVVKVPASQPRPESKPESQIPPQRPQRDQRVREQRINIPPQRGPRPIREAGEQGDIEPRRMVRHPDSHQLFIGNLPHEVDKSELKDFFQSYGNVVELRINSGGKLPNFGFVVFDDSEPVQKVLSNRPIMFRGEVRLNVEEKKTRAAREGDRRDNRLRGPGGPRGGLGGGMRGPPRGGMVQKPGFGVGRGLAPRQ"}
{"Sequence": "CCUGUGCUACACAUCGUAUGUACCGAAUCGGGGAAAAAGGGGAAAGGGGUUUUUUUGGGGAAAGUAUUAUGUUACGCCGUUCGGAUCUGC", "log2 enrichment": 0.64}
{"Sequence": "CCUGUGCUACACAUCGUAUGUACCGAAUCAAACCCCCAAAUUUUUUUAAAUUUUUUUAAAAAAGUAUUAUGUUACGCCGUUCGGAUCUGC", "log2 enrichment": -0.438}
{"Sequence": "UGGCCCUGGUGGCAUGCCGGGAGGAAGAGGUGGCCUCAUGGAUCGUGGUGGUCCCGGUGGAAUGUUCAGAGGUGGCCGUGGUGGAGACAG", "log2 enrichment": 0.84}
{"Sequence": "UAACUUUAGAGGAGGAUCUGAUGGAUAUGGCAGUGGACGUGGAUUUGGGGAUGGCUAUAAUGGGUAUGGAGGAGGACCAGGAGGUGGCAA", "log2 enrichment": -0.347}
{"Sequence": "GUCCUGUGCUACACAUCGUAUGUACCGAAUCGGCCCCCCGGGCCCCCCGGGCCCCCCGGAAAGUAUUAUGUUACGCCGUUCGGAUCUGCA", "log2 enrichment": -0.457}
{"Sequence": "AGUCCUGUGCUACACAUCGUAUGUACCGAAUCGGGAAAAAAAGGGAAAAAGGGAGGGAAAGUAUUAUGUUACGCCGUUCGGAUCUGCACU", "log2 enrichment": 0.734}
{"Sequence": "CAAGUCCUGUGCUACACAUCGUAUGUACCGAAUCGGUUUGGGGUUUGGGUUUGGGGAAAGUAUUAUGUUACGCCGUUCGGAUCUGCACUU", "log2 enrichment": -0.404}
{"Sequence": "UCUUGUAUGACUUAACCCCUGUUUCUAAUACAGGGGCCGCUCUCCUCAGCCUCCUGCUGAAGAGGAUGAAGAUGACUUUGAUGAUACCCU", "log2 enrichment": -0.124}
{"Sequence": "CUCAAGUCCUGUGCUACACAUCGUAUGUACCGAAUCGGGGUUGGUUGGGUUGGAAAGUAUUAUGUUACGCCGUUCGGAUCUGCACUUCCA", "log2 enrichment": -0.259}
{"Sequence": "AGUCCUGUGCUACACAUCGUAUGUACCGAAUCGGUUUUUUGGUUUUUUGGUUUUUUGGAAAGUAUUAUGUUACGCCGUUCGGAUCUGCAC", "log2 enrichment": -0.0801}
{"Sequence": "CAAGUCCUGUGCUACACAUCGUAUGUACCGAAUCGGGUGGGAAAGGGAAAAAGGGAAAGUAUUAUGUUACGCCGUUCGGAUCUGCACUUC", "log2 enrichment": 0.709}
{"Sequence": "CUGUGCUACACAUCGUAUGUACCGAAUCGGGGCCCCCCCGGCCCCCCCGGGGCCCCCCCGGAAAGUAUUAUGUUACGCCGUUCGGAUCUG", "log2 enrichment": -0.582}
{"Sequence": "UUAAGGAAGGACACUGAGUCAUGCACAAGUCCUUGCCUUCUUGGUGCCCCUCGGAAAGCACAAGACCCCUCCUCUGCUGGGUGUGAUCAA", "log2 enrichment": -0.00649}
{"Sequence": "UUGACCUAGAGGAUGAGACCAUUGAUGCCGAGGUCAUGAACUCUCUAGCAGUUACUAUGGAUGACUUCCGGGUAAGGACCACACCCGUGC", "log2 enrichment": -0.138}
{"data": "Sample 3", "target": "Prothrombin, mature alpha-thrombin (F2, Homo sapiens, UniProt P00734)", "technique": "aptamer microarray, sandwich", "form": "DNA with 2'F-ANA", "sample": "in vitro", "concentration": "200 nM", "notes": "whole 15-mer aptamer, many near background", "together with": "Cy3 exosite-II aptamer, 400 nM", "direction": "higher = stronger binding", "sequence": "GGTTGGTGTGGTTGG"}
{"Modification": "2'F-ANA at 1 4 8 9 10 11 12", "mean fluorescence intensity": "57.9 a.u."}
{"Modification": "2'F-ANA at 1 2 3 5 6 8 12 13 14 15", "mean fluorescence intensity": "48.8 a.u."}
{"Modification": "2'F-ANA at 4 5 6 7 9 10 15", "mean fluorescence intensity": "97.7 a.u."}
{"Modification": "2'F-ANA at 1 2 3 4 5 9 11", "mean fluorescence intensity": "52.5 a.u."}
{"Modification": "2'F-ANA at 1 5 6 7 8 9 11 13 15", "mean fluorescence intensity": "49.3 a.u."}
{"Modification": "2'F-ANA at 2 4 5 7 13", "mean fluorescence intensity": "50.3 a.u."}
{"Modification": "2'F-ANA at 2 4 5 6 7 11", "mean fluorescence intensity": "72.7 a.u."}
{"Modification": "2'F-ANA at 2 3 5 6 8 10 11 15", "mean fluorescence intensity": "52.7 a.u."}
{"Modification": "2'F-ANA at 1 2 3 4 6 9 10 14 15", "mean fluorescence intensity": "83.3 a.u."}
{"Modification": "2'F-ANA at 2 3 4 5 9 11 12 14", "mean fluorescence intensity": "51.3 a.u."}
{"Modification": "2'F-ANA at 1 3 6 8 10 11 12 14 15", "mean fluorescence intensity": "60.2 a.u."}
{"Modification": "2'F-ANA at 1 2 4 5 8 9 12 13 14 15", "mean fluorescence intensity": "52.5 a.u."}
{"Modification": "2'F-ANA at 1 4 6 10 14 15", "mean fluorescence intensity": "46.8 a.u."}
{"Modification": "2'F-ANA at 1 2 3 6 7 10 11 12 14 15", "mean fluorescence intensity": "52.9 a.u."}
{"Modification": "2'F-ANA at 2 6 9 10 13 14", "mean fluorescence intensity": "174 a.u."}
{"Modification": "2'F-ANA at 1 3 4 6 7 10 11 12 13 15", "mean fluorescence intensity": "104 a.u."}
{"Modification": "2'F-ANA at 2 3 6 7 10 11 12 13 14 15", "mean fluorescence intensity": "217 a.u."}
{"Modification": "2'F-ANA at 2 4 5 6 9 10 12 13 14", "mean fluorescence intensity": "67 a.u."}
{"Modification": "2'F-ANA at 1 5 6 9 10 11 12 13 14 15", "mean fluorescence intensity": "48.4 a.u."}
{"Modification": "2'F-ANA at 1 2 3 6 7 9 11 13", "mean fluorescence intensity": "122 a.u."}
{"Modification": "2'F-ANA at 6 7 8 9 12 13 14", "mean fluorescence intensity": "199 a.u."}
{"Modification": "2'F-ANA at 1 2 3 4 13", "mean fluorescence intensity": "134 a.u."}
{"Modification": "2'F-ANA at 1 4 6 9 12 13 14 15", "mean fluorescence intensity": "51 a.u."}
{"Modification": "2'F-ANA at 1 4 7 8 10 12 14", "mean fluorescence intensity": "75.2 a.u."}
{"data": "Sample 4", "target": "RNA binding protein fox-1 homolog 2, RRM domain, GST-SBP tag (RBFOX2, Homo sapiens, UniProt O43251-10, residues 100-194)", "technique": "RNA Bind-n-Seq", "form": "RNA", "sample": "in vitro", "concentration": "365 nM", "notes": "natural RNA segment, single round, ends assumed", "reference": "no-protein control", "direction": "higher = stronger binding", "shared flanks, not repeated": "GGGAGUUCUACAGUCCGACGAUC … UGGAAUUCUCGGGUGCCAA", "Target sequence (chain)": "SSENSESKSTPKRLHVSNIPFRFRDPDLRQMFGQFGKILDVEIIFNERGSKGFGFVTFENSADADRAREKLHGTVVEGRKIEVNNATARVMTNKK"}
{"Sequence": "CUAUAGACUGUUUUAAGAGUUUUGGGGUUUUUUUAAUUGGGUGGUUUGUAACCCCUUCAGCCUAGCCUCUCUGCCCAUUUAUUUCCAACCCCAACAGACACUGACAGGGU", "RBNS enrichment (R)": 0.374}
{"Sequence": "AUGGUUUUUAUAGUUUGUUGAUAAAGUGGACACAGUAUUGUCUGAGCAGUUAUAUUUUAAUGCAUUUCAGUGUUUAUAGUAGAAGUUUAGUGGAUAAAACUUUAAGUCCA", "RBNS enrichment (R)": 0.509}
{"Sequence": "CUUCAUGGACCAACUUGCAUUCCAUCAGUUUUAUAUUAGCCUUUCUGCAGUUAGAACAUGGAUGUUUCUUCUUUGAUUAUCAAAAACACAAAAACAGAGAGCAAGCCCGA", "RBNS enrichment (R)": 0.404}
{"Sequence": "CUCUCACGGUCCUCCUUCCUGGGACCUGAGCAGGUUUGGUGAAAGCCACCGUCCUCCGUGACACACGGCCCCCUUCCUCCUGUCCCCACACUCCCAGGAGAAACUCCCGG", "RBNS enrichment (R)": 0.353}
{"Sequence": "UUUUGUGGACACAGAUUUUUGUAGUUUCCAUUUUGGAAGGCUAAAGUGUUUUGUUUGUUUGAAACAGUUUUACACUUUCUAAUGUACAGUACUUGAAGUUCGUACUAGAG", "RBNS enrichment (R)": 0.395}
{"Sequence": "UGAUCAUUCCGAGUGUUGCUGCAAGAUUACAGUGGACGUGAUCUUUUAGCAUGUGCUUUUAUAAAAAGUGGUAGCUACAGAUGAUAUAGCAAUCUACCUUAUAUAGAGCC", "RBNS enrichment (R)": 0.596}
{"Sequence": "ACUAAUUGAAAAAUAUCAAAUUUACUAUUAUAAUGUAAGAGAGAAAUAUAGGUCAUAACUUCGGCACGACUUUAAGUACUAAGCAAUAAUGGAGUCGUCAGACGCCUCCG", "RBNS enrichment (R)": 0.249}
{"Sequence": "GGCCUUGUUUCUCCUUGCCCAGCAGUGCUGCCUUCAGCGGCCGUGACGGGGCCAGCUGGACACACGGUGAGAUUUUCUCGUAUGUAAAUAAAAGGCAUUUUGGUAAACGU", "RBNS enrichment (R)": 0.484}
{"Sequence": "UCCUGAAGUAGACUAAAGCCCGGCUGAAAAUUCCGAGGAAAACAAAACAAACGAAUGAAUGAACAGACACACACAAUGUUCCAAGUUCCCCUAAAAUAUGACCCACUUGU", "RBNS enrichment (R)": 0.93}
{"Sequence": "GGGGAAAAGGUACAAUAUGUCAAAGAGAUGAGAGAGUGUUAUUUCUUGGGCAAUUUUCUAUUAGUGUUUCUUAUUUUGGCCAGUUCUUUUAUUUAUGUCCUUGUGACCCA", "RBNS enrichment (R)": 0.504}
{"Sequence": "GGGCGAGCAGGUGUGACAUUGGCUAAGGAAGUGUUUCCAGAGUGUGCGUCUCGGGUGACCCUUGCUGUCUUUUCUCUACACCCAUGGAUUCUCUGAAAAUACUUUGCAGU", "RBNS enrichment (R)": 0.478}
{"Sequence": "ACUGAGCACACCUUCUGCCAGCACCUACUGAGGGAGACGAAAAGCCCCUGGAAAUUCGUGUGGCCUGUGAAGUGGUGUAUUGUAGUUUGAAUUUGAGACCUAUUGUAAGC", "RBNS enrichment (R)": 0.546}
